Assay results pooled from the literature.
Every numbered part comes from another study and shows a few of its results, in no order. Changes are numbered by the printed parent chain.

Block 1
Target: CCNB1, cyclin fold, Cln2 fusion (human)
Method: yeast growth competition, sequencing
Sample: yeast
Notes: weak parent motif
Reference: not given
Direction: higher = stronger binding
Parent: SCAPER docking peptide (human); SNARRSLNFGGST
Change	normalised enrichment score
SNARRSLNFGLST [G11L]	-0.141
SNRRRSLNFGGST [A3R]	0.596
SNARRLLNFGGST [S6L]	0.801
SYARRSLNFGGST [N2Y]	0.26
SNATRSLNFGGST [R4T]	0.351
SNARFSLNFGGST [R5F]	0.56
SNARRSLNFGGLT [S12L]	0.855
SNARRSRNFGGST [L7R]	0.0643
SNARRSLNFGGRT [S12R]	-0.0417

Block 2
Target: Interferon regulatory factor 3, full length, phosphomimetic (IRF3, Homo sapiens, UniProt Q14653, residues 1-427, S386D/S396D/S398D/S402D/T404D/S405D)
UniProt Q14653, sequence (whole entry, unmodified, looked up): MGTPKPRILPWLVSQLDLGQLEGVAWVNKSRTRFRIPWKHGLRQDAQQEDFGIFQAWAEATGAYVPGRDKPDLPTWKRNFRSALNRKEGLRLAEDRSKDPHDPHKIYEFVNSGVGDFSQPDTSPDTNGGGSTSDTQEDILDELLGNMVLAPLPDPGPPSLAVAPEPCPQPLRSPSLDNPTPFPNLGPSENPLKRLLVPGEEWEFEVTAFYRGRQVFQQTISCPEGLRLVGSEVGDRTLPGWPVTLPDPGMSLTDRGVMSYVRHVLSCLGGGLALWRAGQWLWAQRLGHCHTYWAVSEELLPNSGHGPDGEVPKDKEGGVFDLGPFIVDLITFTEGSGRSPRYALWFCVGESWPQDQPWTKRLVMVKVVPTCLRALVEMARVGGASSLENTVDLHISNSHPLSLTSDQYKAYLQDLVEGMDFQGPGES
Method: protein-binding microarray
Form: double-stranded DNA, one strand shown
Sample: in vitro
Tested at: 2540 nM top
Notes: 60-bp whole probe
Together with: salmon DNA 0.4 mg/ml
Reference: random background probes
Direction: higher = stronger binding
Shared flanks, not repeated: GCCTAGCAC … GTCTTGATTCGCTTGACGCTGCTG
Sequence	fitted relative affinity
TTAGGTTGCGGACTGGGTTAGTGCTAG	1.21 z-score
TCATTTTAATTTTTAACACTGTGCTAG	2.39 z-score
AAGTGTGCCCATCTCTGCTCGTGCTAG	1.25 z-score
GACGATCTCAGTCTCGGGACGTGCTAG	0.662 z-score
TCATATTTAAGGCTAGGACTGTGCTAG	0.411 z-score
GAGGATATCGGGACTGGAGACGTGCTA	-0.381 z-score
GACGGTATCCTAGTGCTGACGTGCTAG	2.65 z-score
GACGATTTCGGGACTGGAGACGTGCTA	1.89 z-score
GACGATTTCGGACTGGGGACGTGCTAG	1.8 z-score

Block 3
Target: RING finger protein unkempt homolog, zinc fingers 1-6, GST-SBP tag (UNK, Homo sapiens, UniProt Q9C0B0, residues 30-357)
Method: RNA Bind-n-Seq
Form: RNA
Sample: in vitro
Tested at: not given
Notes: RNA with constant flanks, human-mouse chimeric sites, ends assumed
Reference: input RNA pool
Direction: higher = stronger binding
Shared flanks, not repeated: GGGAGUUCUACAGUCCGACGAUC … CAACAGAGGAUUGAGCAUCA
Construct (chain): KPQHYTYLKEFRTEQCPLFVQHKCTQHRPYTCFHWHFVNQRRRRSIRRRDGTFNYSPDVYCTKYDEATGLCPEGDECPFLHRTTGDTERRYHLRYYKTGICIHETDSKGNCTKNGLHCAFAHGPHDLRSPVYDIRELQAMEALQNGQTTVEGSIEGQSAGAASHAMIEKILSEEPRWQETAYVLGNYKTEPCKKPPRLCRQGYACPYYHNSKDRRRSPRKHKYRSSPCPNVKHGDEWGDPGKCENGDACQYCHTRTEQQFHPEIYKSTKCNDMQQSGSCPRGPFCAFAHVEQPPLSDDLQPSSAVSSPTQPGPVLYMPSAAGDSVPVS
Sequence	bound/input enrichment
CAGCGCCGAGGCCGCGGUUUCCCCCUGGGCCUCCCCAGCCGCCGCCAUGGGCAUCAAAUUUUUAGAAGUUAUCAAACCAUUCUGUGCAGUUCUACCAGAAAUUCAGAAGCCUGAAAGGAA	1.11 ratio
GUAUACGGUUAUCGAGGAAAGGACUGUAGAGCGAAUGUAUACCUGCUUCCGACCGGGGAGAUAGUUUAUUUUAUCGCCUCAGUGGUAGUCCUGUUUAAUUAUGAGGAGAGGACUCAGCGA	0.368 ratio
CGCCUGGAUGAGGCGGGUGUUACUGAUGAAGUGCUAGAUUCUGCCAUGCAAGCCUUCCUUCUGGAGGUCAUUGUUAAACAUGGGGAGCCGGCACCUUAUUUAUGUAACAAAGAUCCGUUU	0.107 ratio
AACAGAUUGUCUUUAAGCAUUCCAAGCGAGAAUGCUGGGGUGAUCAUAAUUACCCACGUGCCUUCUGACUGAGCUUUAAUGCUGUUCCAUGUUACAUCUUUCCUUCACUCCAGAAUUGUU	0.133 ratio
AUCCAGUACUCCAAUCACAAAGAACUAAAGACAGAUAAUACAUUAAACCAACGUGCUCAAGUAGUUCUUCAAGCUGUGACAGCUGUCCAGACAGCAAAUACUCCUCUUAGUGGCACCACA	0.385 ratio
CCCUCCCGGGCCACCCAACCCCUCCCGGCUCCCCGCCGAGAUCCAGGUUUCUUCUUAUUUCAUAGCAAGCCAGAACAAUGUUCUACGCACAUUUUGUCCUCAGUAAACGAGGGCCUCUGG	1.96 ratio
GCGGCAGAAUCAUGGAGGACAUAAUGCAGCUCCCCAAGUCGCGCAUCAACGCCAGCAUGCUAGCUCAGUAUAUCGACCGGCCCGUGUGCUUCGUGGGGAAGCUGGAAAAGAUUCAUCCCA	0.0919 ratio
ACCUCCCCCUCCCGCCUCACCCCACCCCCGCUUUUUGGAAAGUUUUUGGCGUUUCUUUUCCUUCCCCAUACAAAGUGAUUACAGUUUAGAGUCUAUGGGUCUAUCGAUUCACCCUUCGGA	1.32 ratio

Mixed results
Substance	target	test	system	setting	how to read	quantity	result
PhoQ, residues 284 288 289 292 302 303 SSTLSG	PhoP, residues 12 14 15 18 19 GQAIL (Escherichia coli, UniProt P23836)	Sort-seq, item: YFP reporter	E. coli	PhoQ-PhoP variant library, together with: 10 µM Mg2+	reference: high Mg2+ state, higher = stronger signaling	fold induction	8.47

Some of these lines once more (block 2):
Sequence	fitted relative affinity
AAGTGTGCCCATCTCTGCTCGTGCTAG	1.25 z-score
TCATTTTAATTTTTAACACTGTGCTAG	2.39 z-score
